# Assay results pooled from the literature.
# Lines come from different studies, so protocols differ. Values joined by “and” are separate records of one study, mostly repeats; a detail may differ. ± gives the spread as reported.
# Rhomboid protease AarA: Rhomboid protease AarA (Providencia stuartii, UniProt P46116)
# UniProt P46116, sequence (whole entry, looked up): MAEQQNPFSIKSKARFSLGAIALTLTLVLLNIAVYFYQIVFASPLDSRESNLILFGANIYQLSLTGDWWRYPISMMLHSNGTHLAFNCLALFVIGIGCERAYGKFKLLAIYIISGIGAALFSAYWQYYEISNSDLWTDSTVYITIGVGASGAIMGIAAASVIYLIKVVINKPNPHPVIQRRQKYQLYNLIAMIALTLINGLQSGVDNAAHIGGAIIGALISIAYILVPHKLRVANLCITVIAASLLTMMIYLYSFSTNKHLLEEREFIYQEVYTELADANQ
# KDM1A: Lysine-specific histone demethylase 1A (KDM1A, Homo sapiens, UniProt O60341)
# UniProt P46089, sequence (whole entry, unmodified, looked up): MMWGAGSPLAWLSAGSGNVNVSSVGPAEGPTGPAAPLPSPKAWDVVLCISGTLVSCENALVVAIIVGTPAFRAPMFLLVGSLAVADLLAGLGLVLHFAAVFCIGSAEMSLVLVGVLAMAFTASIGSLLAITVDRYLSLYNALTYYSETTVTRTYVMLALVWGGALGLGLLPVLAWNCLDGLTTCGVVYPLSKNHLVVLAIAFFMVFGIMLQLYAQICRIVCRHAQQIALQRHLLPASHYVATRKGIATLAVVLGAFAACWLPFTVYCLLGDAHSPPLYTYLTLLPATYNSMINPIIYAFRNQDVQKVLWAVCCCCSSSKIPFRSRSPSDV
# UniProt O75417, sequence (whole entry, looked up): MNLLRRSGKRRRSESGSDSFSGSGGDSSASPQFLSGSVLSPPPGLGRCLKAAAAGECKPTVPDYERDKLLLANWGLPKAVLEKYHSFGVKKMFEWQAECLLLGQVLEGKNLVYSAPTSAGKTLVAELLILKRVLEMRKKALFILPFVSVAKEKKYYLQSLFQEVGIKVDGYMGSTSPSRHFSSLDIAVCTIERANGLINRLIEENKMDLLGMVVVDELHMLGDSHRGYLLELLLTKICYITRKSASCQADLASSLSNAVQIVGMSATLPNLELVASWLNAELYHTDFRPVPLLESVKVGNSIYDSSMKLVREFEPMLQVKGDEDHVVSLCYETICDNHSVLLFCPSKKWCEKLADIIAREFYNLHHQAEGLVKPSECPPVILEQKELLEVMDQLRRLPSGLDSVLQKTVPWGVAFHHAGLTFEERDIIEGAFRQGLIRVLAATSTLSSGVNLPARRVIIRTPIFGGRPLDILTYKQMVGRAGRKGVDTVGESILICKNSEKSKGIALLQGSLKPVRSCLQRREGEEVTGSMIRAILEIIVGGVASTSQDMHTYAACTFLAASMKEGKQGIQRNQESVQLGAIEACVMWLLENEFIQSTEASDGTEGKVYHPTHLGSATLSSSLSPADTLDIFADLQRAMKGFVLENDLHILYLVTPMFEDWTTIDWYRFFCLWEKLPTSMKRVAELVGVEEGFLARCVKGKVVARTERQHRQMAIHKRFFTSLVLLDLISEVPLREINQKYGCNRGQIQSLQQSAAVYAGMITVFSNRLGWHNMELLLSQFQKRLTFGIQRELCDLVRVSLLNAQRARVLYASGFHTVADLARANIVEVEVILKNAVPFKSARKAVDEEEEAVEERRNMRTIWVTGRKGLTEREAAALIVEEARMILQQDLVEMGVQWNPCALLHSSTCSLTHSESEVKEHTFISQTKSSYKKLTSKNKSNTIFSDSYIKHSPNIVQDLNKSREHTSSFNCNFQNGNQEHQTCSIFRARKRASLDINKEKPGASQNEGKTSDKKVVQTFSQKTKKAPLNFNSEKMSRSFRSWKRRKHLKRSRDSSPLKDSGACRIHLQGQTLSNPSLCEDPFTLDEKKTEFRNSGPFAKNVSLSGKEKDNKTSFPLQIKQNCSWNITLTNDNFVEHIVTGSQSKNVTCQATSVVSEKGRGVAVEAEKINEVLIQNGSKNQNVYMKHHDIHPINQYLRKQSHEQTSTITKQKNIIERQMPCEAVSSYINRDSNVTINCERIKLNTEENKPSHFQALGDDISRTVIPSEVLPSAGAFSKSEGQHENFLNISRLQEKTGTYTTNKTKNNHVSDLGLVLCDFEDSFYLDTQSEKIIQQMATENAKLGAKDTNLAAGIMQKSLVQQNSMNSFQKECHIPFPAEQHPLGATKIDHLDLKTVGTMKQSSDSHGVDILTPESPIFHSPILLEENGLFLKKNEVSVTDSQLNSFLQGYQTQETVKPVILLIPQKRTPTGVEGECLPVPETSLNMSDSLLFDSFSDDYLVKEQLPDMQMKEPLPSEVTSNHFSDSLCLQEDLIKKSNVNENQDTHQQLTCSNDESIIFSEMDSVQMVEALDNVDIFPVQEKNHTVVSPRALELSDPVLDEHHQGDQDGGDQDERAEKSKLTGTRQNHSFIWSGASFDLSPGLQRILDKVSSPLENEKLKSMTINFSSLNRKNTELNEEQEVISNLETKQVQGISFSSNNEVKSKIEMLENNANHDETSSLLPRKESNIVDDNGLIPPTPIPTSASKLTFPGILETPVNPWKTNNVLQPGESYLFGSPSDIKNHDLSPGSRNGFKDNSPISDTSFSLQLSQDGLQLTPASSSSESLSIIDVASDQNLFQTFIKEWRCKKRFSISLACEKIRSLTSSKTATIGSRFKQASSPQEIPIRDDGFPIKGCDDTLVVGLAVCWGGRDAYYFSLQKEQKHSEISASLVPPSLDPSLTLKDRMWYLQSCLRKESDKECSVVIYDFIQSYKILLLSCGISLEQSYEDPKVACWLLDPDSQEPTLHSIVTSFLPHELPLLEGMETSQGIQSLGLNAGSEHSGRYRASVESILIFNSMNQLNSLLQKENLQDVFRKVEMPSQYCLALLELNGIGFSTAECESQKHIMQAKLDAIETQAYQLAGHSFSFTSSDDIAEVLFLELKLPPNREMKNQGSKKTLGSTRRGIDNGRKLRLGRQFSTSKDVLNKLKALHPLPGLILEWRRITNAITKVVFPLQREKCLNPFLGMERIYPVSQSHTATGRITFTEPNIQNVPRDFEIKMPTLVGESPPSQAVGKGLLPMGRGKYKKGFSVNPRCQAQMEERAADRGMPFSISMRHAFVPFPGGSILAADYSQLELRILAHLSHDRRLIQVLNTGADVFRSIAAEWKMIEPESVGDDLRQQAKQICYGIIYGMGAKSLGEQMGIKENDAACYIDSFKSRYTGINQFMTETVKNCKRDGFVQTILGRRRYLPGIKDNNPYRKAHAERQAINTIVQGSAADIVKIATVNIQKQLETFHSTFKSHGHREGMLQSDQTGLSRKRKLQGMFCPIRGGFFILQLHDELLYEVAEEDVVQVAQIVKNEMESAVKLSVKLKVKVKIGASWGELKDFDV
# UniProt P12295, sequence (whole entry, looked up): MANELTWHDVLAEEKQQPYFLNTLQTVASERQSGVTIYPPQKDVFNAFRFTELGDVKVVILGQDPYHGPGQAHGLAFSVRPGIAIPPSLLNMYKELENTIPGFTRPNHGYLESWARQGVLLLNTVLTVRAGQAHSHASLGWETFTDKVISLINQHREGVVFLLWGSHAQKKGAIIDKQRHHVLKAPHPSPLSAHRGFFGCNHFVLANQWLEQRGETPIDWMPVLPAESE
# UniProt Q16539, sequence (whole entry, looked up): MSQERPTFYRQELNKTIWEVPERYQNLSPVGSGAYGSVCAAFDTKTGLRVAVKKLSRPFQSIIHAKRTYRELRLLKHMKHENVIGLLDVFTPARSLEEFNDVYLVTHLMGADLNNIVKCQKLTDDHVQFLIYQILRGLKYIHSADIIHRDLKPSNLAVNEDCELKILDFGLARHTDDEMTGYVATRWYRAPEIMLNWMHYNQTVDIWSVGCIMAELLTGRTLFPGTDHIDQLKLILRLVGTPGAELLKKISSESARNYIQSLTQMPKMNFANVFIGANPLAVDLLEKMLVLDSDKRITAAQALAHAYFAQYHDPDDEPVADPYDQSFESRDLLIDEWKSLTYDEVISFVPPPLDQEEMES
# UniProt P39900, sequence (whole entry, looked up): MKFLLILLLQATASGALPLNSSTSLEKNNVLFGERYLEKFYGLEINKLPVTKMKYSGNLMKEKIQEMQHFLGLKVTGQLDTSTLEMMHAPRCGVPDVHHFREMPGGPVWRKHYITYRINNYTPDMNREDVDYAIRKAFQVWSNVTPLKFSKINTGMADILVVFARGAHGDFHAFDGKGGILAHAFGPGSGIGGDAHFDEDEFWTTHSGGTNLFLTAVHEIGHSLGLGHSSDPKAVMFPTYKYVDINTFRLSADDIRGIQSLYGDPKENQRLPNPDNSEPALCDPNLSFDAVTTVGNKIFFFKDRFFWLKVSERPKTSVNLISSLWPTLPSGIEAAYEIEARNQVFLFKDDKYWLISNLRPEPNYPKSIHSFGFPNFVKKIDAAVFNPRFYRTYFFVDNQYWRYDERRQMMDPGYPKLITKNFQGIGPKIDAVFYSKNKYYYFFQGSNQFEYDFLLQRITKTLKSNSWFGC
# UniProt Q9HB29, sequence (whole entry, looked up): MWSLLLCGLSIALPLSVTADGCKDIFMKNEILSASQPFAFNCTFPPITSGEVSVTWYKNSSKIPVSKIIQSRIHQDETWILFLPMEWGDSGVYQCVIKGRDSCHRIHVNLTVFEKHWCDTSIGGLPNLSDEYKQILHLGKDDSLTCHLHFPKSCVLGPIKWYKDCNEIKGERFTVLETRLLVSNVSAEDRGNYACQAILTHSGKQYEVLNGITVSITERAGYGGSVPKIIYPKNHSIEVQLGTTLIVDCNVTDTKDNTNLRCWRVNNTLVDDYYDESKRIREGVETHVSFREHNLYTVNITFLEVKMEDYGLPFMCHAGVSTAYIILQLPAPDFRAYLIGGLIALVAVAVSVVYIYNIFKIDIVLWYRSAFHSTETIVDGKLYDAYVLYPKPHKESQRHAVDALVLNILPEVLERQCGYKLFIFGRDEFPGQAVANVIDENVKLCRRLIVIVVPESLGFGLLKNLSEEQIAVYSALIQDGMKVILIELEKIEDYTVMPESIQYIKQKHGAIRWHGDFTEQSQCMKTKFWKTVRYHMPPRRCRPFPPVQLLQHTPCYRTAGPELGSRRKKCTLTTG
Structure (SMILES),target or system,test,system,conditions,how to read,quantity,value
O=C1CC(c2ccccc2)N1S(=O)(=O)c1ccc(Br)cc1 (stereo not shown),Rhomboid protease AarA,"enzyme activity, inhibitor",,100 µM,,remaining activity,72%
O=C=[N][Ru-4]123([n]4c5ccc(O)cc5c5c6c(c7cc(F)c[n+]1c7c54)C(=O)NC6=O)[S+]1CC[S+]2CC[S+]3CC1 (stereo not shown),"Tyrosine-protein kinase ABL1 (Abl1, Mus musculus, UniProt P00520)",enzyme activity,,"100 nM, mouse enzyme, added: 10 µM ATP",reference: untreated,remaining activity,103%
O=C(Nc1ccccc1)c1cccc([C@@H]2C[C@H]2NC2CCC2)c1 (racemic),KDM1A,"demethylase activity, inhibitor, Amplex Red",,"0.6667 µM, added: H3K4me2 peptide",reference: vehicle,remaining activity,17.9%
COc1ccccc1-c1ccncc1C(=O)Nc1ccc(OCc2ccc(Cl)cc2)nn1,"DNA polymerase theta, helicase domain (POLQ, Homo sapiens, UniProt O75417)","ATPase activity, ADP-Glo",,0.24 µM,reference: 0 µM cpd,remaining activity,97%
C=C(NC(=O)c1csc(-c2nc3c(cc2O)-c2nc(cs2)C(=O)NC(C(C)O)C(=O)NC(=C(C)OC)c2nc(cs2)C(=O)NC2c4nc(cs4)C(=O)NC(COC(=O)c4c5c6c(cccc6n4O)COC(=O)C(OC4CC(C)(O)C(N(C)C)C(C)O4)C2OC5)c2nc-3cs2)n1)C(N)=O (stereo not shown),,,"cynomolgus monkey, both sexes, plasma","intravenous infusion, 3 mg/kg multiple doses, day 7",,Tmax,12 min
CC(C)Oc1cc(Cl)ccc1CNc1cc(-c2ccccc2)nc2ncnn12,"G-protein coupled receptor 3 (GPR3, Homo sapiens, UniProt P46089, L136A)","cAMP level, cAMP GloSensor",,10 nM,higher = more cAMP,cAMP luminescence,38900 a.u. and 57300 a.u. and 51000 a.u. and 50400 a.u.
COC(=O)[C@@]1(C)C=C(C(=O)Nc2cccc(C(=O)Nc3ccc(Nc4nccc(-c5cccnc5)n4)c(C)c3)c2)C(=O)CC1,"Mitogen-activated protein kinase 14 (MAPK14, Homo sapiens, UniProt Q16539)","kinase activity, inhibitor",,"0.02032 µM, unit not given",reference: no inhibitor,remaining activity,1.14
O=C1CC(c2ccccc2)N1S(=O)(=O)c1cccc(-c2ccccc2)c1 (stereo not shown),Rhomboid protease AarA,"enzyme activity, inhibitor",,100 µM,,remaining activity,50%
COC1CN([C@H]2CC[C@H]([C@@]3(C)Oc4c(Cl)cc(C(=O)NCc5c(SC)cc(C)[nH]c5=O)c(C)c4O3)CC2)C1,,"RNA-seq, item: PLEKHA7 mouse homolog","mouse, HT-1376 xenograft, whole blood",dose not given,reference: vehicle,log2 fold change,0.893
Cc1ccc(C)c(-c2ccc3nc(NC(=O)C4CCCCC4)nn3c2)c1,AMPK,enzyme activity,,10 µM,,remaining activity,98%
O=C(Nc1cccc([C@@H]2C[C@H]2NC2CCC2)c1)c1ccccc1,KDM1A,"demethylase activity, inhibitor",,"0.06859 µM, added: H3K4me2 peptide",,remaining activity,97.8%
CC(C)[C@@H]1NC(=O)[C@H](Cc2ccccc2)NC(=O)CSC[C@@H](C(N)=O)NC(=O)[C@H](CCC(=O)O)NC(=O)[C@H](CO)NC(=O)[C@H](Cc2c[nH]c3cccc(Cl)c23)NC(=O)[C@H](C2CCCCC2)NC(=O)[C@H](C(C)C)NC(=O)[C@H](Cc2ccc(O)cc2)NC(=O)[C@H](CC(=O)O)NC(=O)[C@H](Cc2c[nH]c3ccccc23)NC(=O)[C@H](Cc2ccc(N)nc2)NC(=O)[C@H](Cc2c[nH]c3ccc(Cl)cc23)NC(=O)[C@H](CCC(=O)O)NC1=O,"Interleukin-1 receptor-like 2 (IL1RL2, Homo sapiens, UniProt Q9HB29)","reporter gene (SEAP), inhibitor, HEK-Blue IL-36R reporter",HEK-Blue IL-36R cells,"33.33 µM, 6 h, added: IL-36γ 100 ng/mL",,remaining activity,76.6%
COc1cc(O)ccc1CCC(c1ccc(O)cc1)c1cc2c(c(C)c1O)OC(c1ccc(O)cc1)CC2 (mixture of isomers),,item: 7-HDHA,human whole blood,"3 µM, added: Escherichia coli",,amount,44 ± 16 pg/mL blood
C[C@](C(=O)NC1CCOCC1)(c1cncnc1)N(C(=O)[C@H](F)Cl)c1ccc(OC(F)(F)Cl)cc1,"Macrophage metalloelastase (MMP12, Homo sapiens, UniProt P39900)","enzyme activity, inhibitor",,10 µM,,remaining activity,102%
C=CC(=O)Nc1cccc(Cn2ncc3cnc(Nc4cnn(CCOC)c4)nc32)c1,MLK3 human,"binding, KINOMEscan",,100 nM,lower = stronger binding,percent of control,87%
CN(C)C(=O)c1cccc([C@@H]2C[C@H]2NC2CCC2)c1,KDM1A,"demethylase activity, inhibitor",,"0.02286 µM, added: H3K4me2 peptide",,remaining activity,93.7%
CCC1(O)CCCN(C(=O)c2ccc(-c3ccc(F)c(C(N)=O)c3)cc2)C1 (stereo not shown),"ung (Escherichia coli, UniProt P12295)","enzyme activity, inhibitor",,"concentration not given, counter-screen",,remaining activity,97.8 ± 3.8%
Cc1cnc(NC(=O)c2cccc([C@@H]3C[C@H]3NC3CCC3)c2)s1,KDM1A,"demethylase activity, inhibitor, Amplex Red",,"0.2222 µM, added: H3K4me2 peptide",reference: vehicle,remaining activity,82.3%
Nc1ncc(-c2cc(-c3cnn(CC(F)(F)F)c3)ncc2F)nc1C(=O)NC1CNCC(F)C1 (stereo not shown),p38-beta,KINOMEscan competition binding,,1 µM,reference: DMSO control,remaining binding,94%

# Repeated from above:
Structure (SMILES),target or system,test,system,conditions,how to read,quantity,value
O=C1CC(c2ccccc2)N1S(=O)(=O)c1ccc(Br)cc1 (stereo not shown),Rhomboid protease AarA,"enzyme activity, inhibitor",,100 µM,,remaining activity,72%
CN(C)C(=O)c1cccc([C@@H]2C[C@H]2NC2CCC2)c1,KDM1A,"demethylase activity, inhibitor",,"0.02286 µM, added: H3K4me2 peptide",,remaining activity,93.7%
O=C1CC(c2ccccc2)N1S(=O)(=O)c1cccc(-c2ccccc2)c1 (stereo not shown),Rhomboid protease AarA,"enzyme activity, inhibitor",,100 µM,,remaining activity,50%
